Measured values pooled from the literature.
A part holds a random share of what one study measured. Substitutions count along the parent as printed.

Series 1
Target: ABI1, truncated, D143A, DHFR fusion (Arabidopsis thaliana)
Method: DHFR PCA, deep sequencing
Medium: yeast
Notes: methotrexate growth selection, single substitutions
Together with: (+)-ABA 200 µM
Reference: wild-type fitted maximum
Direction: higher = stronger binding
Starting sequence: PYL1, truncated, DHFR fusion (Arabidopsis thaliana); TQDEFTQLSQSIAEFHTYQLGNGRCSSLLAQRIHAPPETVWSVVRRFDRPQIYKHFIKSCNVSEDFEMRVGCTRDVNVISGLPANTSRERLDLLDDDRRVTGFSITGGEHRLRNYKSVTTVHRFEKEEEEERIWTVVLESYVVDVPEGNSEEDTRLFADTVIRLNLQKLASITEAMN
Under “relative binding score”, `W134Y` is recorded as 104%.
Under “relative binding score”, `H34D` is recorded as 103%.
For `N177E`, “relative binding score” read 97.2%.

Series 2
Target: Interferon regulatory factor 5, full length, phosphomimetic (IRF5, Homo sapiens, UniProt Q13568-2, residues 1-514, S451D/S453D/S456D/S462D)
Method: protein-binding microarray
Molecule type: double-stranded DNA, one strand shown
Medium: in vitro
Concentration: 940 nM top
Notes: 60-bp whole probe
Together with: salmon DNA 0.4 mg/ml
Reference: random background probes
Direction: higher = stronger binding
Constant ends, left off below: GCCTAGCAC … GTCTTGATTCGCTTGACGCTGCTG
`TTAGGTATCCTACTGCATTAGTGCTAG` — result for “fitted relative affinity”: -0.1 z-score.
Under “fitted relative affinity”, `TTAGGACTGGAATTTCGGTTAGTGCTA` is recorded as 0.24 z-score.
`CACTGACACCGATTTCATCACGTGCTA`: “fitted relative affinity” 0.291 z-score.
`GACGATTTCGGGTTTCGAGAAGTGCTA`: “fitted relative affinity” 2.3 z-score.
Under “fitted relative affinity”, `TTACCTTTTCACTTTACACAGTGCTAG` is recorded as 1.91 z-score.

Series 3
Target: CCNA1, cyclin fold, Cln2 fusion (human)
Method: yeast growth competition, sequencing
Medium: yeast
Notes: weak parent motif
Reference: not given
Direction: higher = stronger binding
Starting sequence: CDC6 docking peptide (human); TLKGRRLVFDNQL; partner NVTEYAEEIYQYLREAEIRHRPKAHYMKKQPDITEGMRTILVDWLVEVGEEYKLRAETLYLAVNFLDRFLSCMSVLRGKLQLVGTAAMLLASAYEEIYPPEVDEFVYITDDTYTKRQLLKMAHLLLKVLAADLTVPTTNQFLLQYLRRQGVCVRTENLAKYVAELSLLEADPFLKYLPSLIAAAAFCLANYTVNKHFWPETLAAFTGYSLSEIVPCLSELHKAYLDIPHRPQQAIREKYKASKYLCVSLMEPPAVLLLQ
For `TLKGRRDVFDNQL [L7D]`, “normalised enrichment score” read 0.21.
`TLKGRPLVFDNQL [R6P]` — result for “normalised enrichment score”: 0.146.
Under “normalised enrichment score”, `TLKGRRLIFDNQL [V8I]` is recorded as 0.391.
Under “normalised enrichment score”, `TLKGRRLVFDNQK [L13K]` is recorded as -0.0731.
For `TLKGRRLVNDNQL [F9N]`, “normalised enrichment score” read 0.165.
`TLKGRRLVFDNQH [L13H]`: “normalised enrichment score” -0.121.

Other studies, line by line
The fold induction of `PhoQ, residues 284 288 289 292 302 303 SLANIV` is reported as 16.4 (PhoP, residues 12 14 15 18 19 NNFVT (Escherichia coli, UniProt P23836); Sort-seq, measured: YFP reporter; E. coli; PhoQ-PhoP variant library, together with: 10 µM Mg2+; reference: high Mg2+ state, higher = stronger signaling).

Excerpt of the above (series 2):
Under “fitted relative affinity”, `TTACCTTTTCACTTTACACAGTGCTAG` is recorded as 1.91 z-score.
`TTAGGTATCCTACTGCATTAGTGCTAG` — result for “fitted relative affinity”: -0.1 z-score.
